{"data": "Results pooled from the literature", "note": "A part holds a random share of what one study measured."}
{"data": "Block 1", "target": "RNA binding protein fox-1 homolog 2, RRM domain, GST-SBP tag (RBFOX2, Homo sapiens, UniProt O43251-10, residues 100-194)", "technique": "RNA Bind-n-Seq", "form": "RNA", "sample": "in vitro", "tested at": "365 nM", "notes": "natural RNA segment, single round, ends assumed", "baseline": "no-protein control", "reading": "higher = stronger binding", "shared flanks, not repeated": "GGGAGUUCUACAGUCCGACGAUC … UGGAAUUCUCGGGUGCCAA", "Target sequence (chain)": "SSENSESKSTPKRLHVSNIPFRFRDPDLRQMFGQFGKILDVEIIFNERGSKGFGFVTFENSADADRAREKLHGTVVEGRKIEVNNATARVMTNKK"}
{"Oligonucleotide": "GUUACCUGAUUUGUGCCUUAGGAUGCAGCGUGAAGCAGAAGUCCAUAUUGCAAUUAUGAUUUUAGAAGGAACUAAGCAUUUUACUCACACCCACAGCAGCAAGAAUGACC", "RBNS enrichment (R)": 3.03}
{"Oligonucleotide": "CUAAGAACCAGCUUCCCAGUGGGGCUCCCUACUUUGUGUGCACCUUGGGCAGUGCCUCUGGGCACUAAUGUUCAUUAGUCCAAGUUUUUGAAGAUCUGCACACAGUAAGU", "RBNS enrichment (R)": 0.416}
{"Oligonucleotide": "UUCAUAACAUAUGGAAUGCUUUAAGCAAUUGUUUUGAAAAAAAUCUGCGUAUCUUUGACUUAAUUGGCACAUGACUUUUUCAAGCAGCCAUUCAUUCAGAGGUUUGUUUU", "RBNS enrichment (R)": 0.422}
{"Oligonucleotide": "UAUUUAACUGUAUAAAAAUGUUCAUUUUACACAAUAUUUAAUUAAAGUAUUUCUUGUCUGUGAAUUUACUUUUGGUAAUUUUCUCUGUUUUUGAUUAUUAAAAUGACUAA", "RBNS enrichment (R)": 0.544}
{"Oligonucleotide": "GGGGGAUUUAAAGGGAAGGAGUGGGCAAAACACAUAAAAUGAAUUUAUUAUAUCUAAGCUCUGUAGCAGGAUUCAUGUCGUUCUUUGACAGUUCUUUCUCUUUCCUGUAU", "RBNS enrichment (R)": 0.62}
{"Oligonucleotide": "UAGCAGCCCCUCCCUAAAGCAUUCUGAGGUAAGGAGGUAUCCAUUCUUCAAAUGAAUGUGAGUGAAGCAGCCCAAGGCUCUUCCUUAAUUCCUCUGGAGUGAUGCUGUGC", "RBNS enrichment (R)": 0.319}
{"Oligonucleotide": "CAUUUUCAAUAACGCGCGCACAGCACACAGGGGUGCCCUGAGCCGAAGGAGCAAAAAAAGCCACCGCUCGUUUCUAUAAUCCAGCUUUGCUUUUCACAGGCGUGGGAUCC", "RBNS enrichment (R)": 0.502}
{"Oligonucleotide": "GCAUGGUGGGGCCCCUGACCAACCUACACAAGUUCCCUCCCACAAGUGGACAUCAGUGUCUUCUCUGUGAGGCAUCUGGCCAUUCGCACUCCCUGGUGUGGUCAGCCUCU", "RBNS enrichment (R)": 9.14}
{"data": "Block 2", "target": "Max-binding protein MNT, bHLH-zipper, MAX partner unstated (MNT, Homo sapiens, UniProt Q99583, residues 220-300)", "technique": "protein-binding microarray", "form": "double-stranded DNA, one strand shown", "sample": "in vitro", "tested at": "not given", "notes": "k-mer, scored over probes, only values ≥0.25", "reading": "higher = stronger binding", "Residues (chain)": "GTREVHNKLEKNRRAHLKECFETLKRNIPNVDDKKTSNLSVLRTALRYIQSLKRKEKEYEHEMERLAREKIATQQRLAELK"}
{"Oligonucleotide": "ACGAGCGG", "E-score": 0.274}
{"Oligonucleotide": "CGTGGTAG", "E-score": 0.386}
{"Oligonucleotide": "GACCCCAC", "E-score": 0.294}
{"Oligonucleotide": "ATGCCCCA", "E-score": 0.277}
{"Oligonucleotide": "GGCGTGGA", "E-score": 0.316}
{"Oligonucleotide": "CCCTCGCG", "E-score": 0.275}
{"Oligonucleotide": "CATGGCAC", "E-score": 0.336}
{"Oligonucleotide": "ACGCTCGC", "E-score": 0.253}
{"Oligonucleotide": "GCATGTCA", "E-score": 0.355}
{"Oligonucleotide": "CGTACACG", "E-score": 0.423}
{"Oligonucleotide": "AGCTCGTG", "E-score": 0.322}
{"Oligonucleotide": "ATCCATGC", "E-score": 0.297}
{"Oligonucleotide": "CGTGAAAG", "E-score": 0.251}
{"data": "Block 3", "target": "Sal-like protein 4, full length isoform B (SALL4, Homo sapiens, UniProt Q9UJQ4-2, residues 1-616)", "technique": "universal PBM", "form": "double-stranded DNA, one strand shown", "sample": "in vitro", "tested at": "not given", "notes": "8-mer, flanks averaged, mean of replicates", "reading": "higher = stronger binding"}
{"Oligonucleotide": "ACCAATGC", "E-score": -0.122}
{"Oligonucleotide": "CATCAGAA", "E-score": 0.209}
{"Oligonucleotide": "ACAGCCCT", "E-score": -0.247}
{"Oligonucleotide": "CAGTACTC", "E-score": 0.00391}
{"Oligonucleotide": "CATTTCAC", "E-score": 0.0629}
{"Oligonucleotide": "GATGGCCC", "E-score": -0.387}
{"Oligonucleotide": "ATGTGCCG", "E-score": -0.0901}
{"Oligonucleotide": "GCGGTCAA", "E-score": -0.0696}
{"Oligonucleotide": "ACGAGGCG", "E-score": -0.162}
{"Oligonucleotide": "ACGTGTTA", "E-score": 0.177}
{"Oligonucleotide": "TGTAGTAA", "E-score": 0.277}
{"Oligonucleotide": "GTGGAGAA", "E-score": -0.0853}
{"Oligonucleotide": "CCGGATAC", "E-score": -0.231}
{"Oligonucleotide": "CTCAACGA", "E-score": -0.0488}
{"Oligonucleotide": "GGTCCTCA", "E-score": -0.115}
{"Oligonucleotide": "AACGAATG", "E-score": -0.00097}
{"Oligonucleotide": "CGGTTTAA", "E-score": -0.035}
{"Oligonucleotide": "ACTTTCGC", "E-score": 0.0214}
{"Oligonucleotide": "AAGTCGTA", "E-score": 0.112}
{"Oligonucleotide": "CAGAATTA", "E-score": 0.154}
{"Oligonucleotide": "CCTTGTCG", "E-score": 0.00631}
{"Oligonucleotide": "ATCTAGCG", "E-score": -0.00448}
{"Oligonucleotide": "TCATTGAA", "E-score": 0.172}
{"data": "Block 4", "target": "Histone acetyltransferase KAT6A, winged helix 1, GST fusion (KAT6A, Homo sapiens, UniProt Q92794, residues 1-85)", "technique": "protein binding microarray", "form": "double-stranded DNA, one strand shown", "sample": "in vitro", "tested at": "not given", "notes": "8-mer, flanks averaged, mean of 2 arrays, mostly near background", "baseline": "not given", "reading": "higher = stronger binding", "Construct (chain)": "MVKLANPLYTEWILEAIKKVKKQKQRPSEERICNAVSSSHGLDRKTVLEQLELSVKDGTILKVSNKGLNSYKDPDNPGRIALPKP"}
{"Oligonucleotide": "GACTAGTA", "E-score": 0.0016}
{"Oligonucleotide": "GCGATGCA", "E-score": 0.093}
{"Oligonucleotide": "ATTTTGGG", "E-score": -0.218}
{"Oligonucleotide": "CTTGGTAC", "E-score": 0.000105}
{"Oligonucleotide": "GGTTGCAC", "E-score": -0.0957}
{"Oligonucleotide": "CCACTACA", "E-score": -0.186}
{"Oligonucleotide": "CGTTTGCC", "E-score": 0.107}
{"Oligonucleotide": "AACCAATG", "E-score": -0.215}
{"Oligonucleotide": "GTGAGTCA", "E-score": -0.147}
{"Oligonucleotide": "ATCTTCAT", "E-score": -0.158}
{"Oligonucleotide": "ATTAAAGA", "E-score": -0.0748}
{"Oligonucleotide": "GAATACGC", "E-score": 0.199}
{"Oligonucleotide": "TCGTTAGA", "E-score": -0.129}
{"Oligonucleotide": "CCCCAAGC", "E-score": 0.0101}
{"Oligonucleotide": "CACGTTCC", "E-score": -0.124}
{"Oligonucleotide": "GCCCGATA", "E-score": 0.0689}
{"Oligonucleotide": "AATAAGAG", "E-score": -0.112}
{"note": "Repeated from above (block 1):"}
{"Oligonucleotide": "UUCAUAACAUAUGGAAUGCUUUAAGCAAUUGUUUUGAAAAAAAUCUGCGUAUCUUUGACUUAAUUGGCACAUGACUUUUUCAAGCAGCCAUUCAUUCAGAGGUUUGUUUU", "RBNS enrichment (R)": 0.422}
{"Oligonucleotide": "GUUACCUGAUUUGUGCCUUAGGAUGCAGCGUGAAGCAGAAGUCCAUAUUGCAAUUAUGAUUUUAGAAGGAACUAAGCAUUUUACUCACACCCACAGCAGCAAGAAUGACC", "RBNS enrichment (R)": 3.03}
{"Oligonucleotide": "CAUUUUCAAUAACGCGCGCACAGCACACAGGGGUGCCCUGAGCCGAAGGAGCAAAAAAAGCCACCGCUCGUUUCUAUAAUCCAGCUUUGCUUUUCACAGGCGUGGGAUCC", "RBNS enrichment (R)": 0.502}
{"Oligonucleotide": "GCAUGGUGGGGCCCCUGACCAACCUACACAAGUUCCCUCCCACAAGUGGACAUCAGUGUCUUCUCUGUGAGGCAUCUGGCCAUUCGCACUCCCUGGUGUGGUCAGCCUCU", "RBNS enrichment (R)": 9.14}
{"Oligonucleotide": "CUAAGAACCAGCUUCCCAGUGGGGCUCCCUACUUUGUGUGCACCUUGGGCAGUGCCUCUGGGCACUAAUGUUCAUUAGUCCAAGUUUUUGAAGAUCUGCACACAGUAAGU", "RBNS enrichment (R)": 0.416}
{"Oligonucleotide": "UAGCAGCCCCUCCCUAAAGCAUUCUGAGGUAAGGAGGUAUCCAUUCUUCAAAUGAAUGUGAGUGAAGCAGCCCAAGGCUCUUCCUUAAUUCCUCUGGAGUGAUGCUGUGC", "RBNS enrichment (R)": 0.319}
{"Oligonucleotide": "GGGGGAUUUAAAGGGAAGGAGUGGGCAAAACACAUAAAAUGAAUUUAUUAUAUCUAAGCUCUGUAGCAGGAUUCAUGUCGUUCUUUGACAGUUCUUUCUCUUUCCUGUAU", "RBNS enrichment (R)": 0.62}
{"Oligonucleotide": "UAUUUAACUGUAUAAAAAUGUUCAUUUUACACAAUAUUUAAUUAAAGUAUUUCUUGUCUGUGAAUUUACUUUUGGUAAUUUUCUCUGUUUUUGAUUAUUAAAAUGACUAA", "RBNS enrichment (R)": 0.544}
